Measurements from different studies.
Each numbered part is a random draw from the data of one study; scales do not carry over between parts. Positions count from the first letter of the parent shown.

Block 1
Target: Ras GTPase-activating protein-binding protein 1, C-terminal RGG region (G3BP1, Homo sapiens, UniProt Q13283)
Sequence of UniProt Q13283 (whole entry, looked up): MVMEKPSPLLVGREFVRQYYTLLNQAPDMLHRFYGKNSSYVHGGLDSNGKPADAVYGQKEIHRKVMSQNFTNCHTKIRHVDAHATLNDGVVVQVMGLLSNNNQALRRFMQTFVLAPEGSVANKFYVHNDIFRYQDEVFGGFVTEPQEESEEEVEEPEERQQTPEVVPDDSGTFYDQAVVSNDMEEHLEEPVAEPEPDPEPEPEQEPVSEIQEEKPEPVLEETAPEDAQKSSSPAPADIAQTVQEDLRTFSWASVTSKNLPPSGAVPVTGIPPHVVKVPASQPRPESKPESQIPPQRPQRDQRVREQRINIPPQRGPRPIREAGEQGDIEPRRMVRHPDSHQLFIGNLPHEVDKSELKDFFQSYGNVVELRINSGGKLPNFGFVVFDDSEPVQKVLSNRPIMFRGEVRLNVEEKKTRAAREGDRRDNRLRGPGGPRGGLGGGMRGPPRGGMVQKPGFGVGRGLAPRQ
Method: RNA Bind-n-Seq
Molecule type: RNA
Matrix: in vitro
Tested at: 1 µM
Setting: whole 134-nt RNA, ends assumed
Together with: 150 mM KCl
Reference: input library
Direction: higher = stronger binding
| Oligonucleotide | log2 enrichment |
| --- | --- |
| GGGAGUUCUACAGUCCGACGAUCAAGUCCUGUGCUACACAUCGUAUGUACCGAAUCGGGAAAGGGUUUUUGGGUUUGGGAAAGUAUUAUGUUACGCCGUUCGGAUCUGCACUUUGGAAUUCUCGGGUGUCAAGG | 0.964 |
| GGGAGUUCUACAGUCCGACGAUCUGGGAGGUGGAUUUUGUUUAUUUUUUUAGCUCAUUUCCAGGGGUGGGAAUUUUUUUUUAAUAUGUGUCAUGAAUAAGGUUGUUUUUGAAAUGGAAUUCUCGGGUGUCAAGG | 1.67 |
| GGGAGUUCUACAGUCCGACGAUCACCAUGCAGGUGGGCAUCUUUGGGAAGUGGGGCAAGGGGGGGAUAGGGAGGGGGGUAACACUUUGAAAACAGGUGGUCCCAGGUCGUUUCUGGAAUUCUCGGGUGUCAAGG | -1.15 |
| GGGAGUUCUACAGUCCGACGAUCUAACUUUAGAGGAGGAUCUGAUGGAUAUGCCAGUGGACGUGGAUUUGGGGAUGGCUAUAAUGGGUAUGGAGGAGGACCUGGAGGUGGCAAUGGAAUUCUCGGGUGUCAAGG | -1.25 |
| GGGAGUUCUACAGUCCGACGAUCUCCUGUGCUACACAUCGUAUGUACCGAAUCGGCCCCCCGGGCCCCCCGGGGCCCCCCGGGAAAGUAUUAUGUUACGCCGUUCGGAUCUGCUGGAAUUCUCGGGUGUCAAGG | -1.56 |
| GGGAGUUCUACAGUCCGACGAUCAAGUCCUGUGCUACACAUCGUAUGUACCGAAUCAAAUUUAAACCCCCAAAUUUAAAAAAGUAUUAUGUUACGCCGUUCGGAUCUGCACUUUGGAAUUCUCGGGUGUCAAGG | -0.664 |

Block 2
Target: ABI1, truncated, D143A, DHFR fusion (Arabidopsis thaliana)
Method: DHFR PCA, deep sequencing
Matrix: yeast
Setting: methotrexate growth selection, single substitutions
Together with: (+)-ABA 1.4 µM
Reference: wild-type fitted maximum
Direction: higher = stronger binding
Parent: PYL1, truncated, DHFR fusion (Arabidopsis thaliana); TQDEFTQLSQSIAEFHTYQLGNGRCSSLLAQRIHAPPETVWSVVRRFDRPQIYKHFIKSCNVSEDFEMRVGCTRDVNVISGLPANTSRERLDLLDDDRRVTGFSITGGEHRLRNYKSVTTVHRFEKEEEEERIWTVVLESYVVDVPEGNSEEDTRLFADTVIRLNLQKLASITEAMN
| Change | relative binding score |
| --- | --- |
| T119P | -4.58% |
| D159I | -13% |
| S171T | 63.5% |
| L91G | -4.03% |
| E14Q | 32.3% |
| S104V | -0.931% |
| R74P | -6.8% |
| E67Q | 49.8% |
| L94G | -2.38% |
| T17M | 18.1% |
| N114P | -8.91% |
| M68D | -9.43% |
| D65N | 62.1% |
| Q51S | 10.9% |
| V137S | 2.75% |

Block 3
Target: RNA binding protein fox-1 homolog 2, RRM domain, GST-SBP tag (RBFOX2, Homo sapiens, UniProt O43251-10, residues 100-194)
Method: RNA Bind-n-Seq
Molecule type: RNA
Matrix: in vitro
Tested at: 365 nM
Setting: natural RNA segment, single round, ends assumed
Reference: no-protein control
Direction: higher = stronger binding
Residues (chain): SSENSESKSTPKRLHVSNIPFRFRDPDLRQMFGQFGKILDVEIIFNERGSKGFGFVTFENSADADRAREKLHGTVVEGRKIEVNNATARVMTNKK
| Oligonucleotide | RBNS enrichment (R) |
| --- | --- |
| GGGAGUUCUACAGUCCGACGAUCUGCCCUGUGCCUGGCAGGGAGCGCUUGCAGAGGUGUCCUAGCCUUAGAGGGCUACUUCAGUGUCUCUACUGACAGAAACUCCUGUAUCUCAAAUGGAUCUCGAAGUUCUCUGGAAUUCUCGGGUGCCAA | 0.252 |
| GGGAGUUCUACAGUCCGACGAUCCUCCCGGUCCUCCACGCGGACCACUAUGCUUCCCCACCGCAGCAGGCGACCGCGGCGCAGCUCCCACCCCGCCCUGCCCGGCCCCGAGCGCUUGCCCGAGGCCAGCGCGCUGGAAUUCUCGGGUGCCAA | 0.343 |
| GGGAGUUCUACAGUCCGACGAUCAUGGCUCCUUCUUCAGAAUAGGUGCAGACCCCUCCCCGUGCCCGUUCCCUGCCACCCGGGGUAAGGAGGUGGCACUACCAGUCUGUCUAACCCACUCACUGGCUUUGACCUGGAAUUCUCGGGUGCCAA | 0.376 |
| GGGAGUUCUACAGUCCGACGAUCUCCUUGAACCCAGCCCCGUGAACAAUCUAUCAUAGGACUUUCAGGUAUUUUUACUUUUAUUUUUUGAUCUGAACUGGGAGCUAUAUUUAGCCCUCUGCCUCUCCAAAGCAUGGAAUUCUCGGGUGCCAA | 0.497 |
| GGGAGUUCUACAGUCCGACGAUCUCAGAAGUCUGUAAUGAAUGUAAUUAUGUUUAGGCCAGUAAAUGAUGUAGAUUCGUCCUUUAUUGGUAGUCGCAGUUGAUAUUUCAAGAGAGUGAGAUGCCAUGCUGACAUGGAAUUCUCGGGUGCCAA | 0.293 |
| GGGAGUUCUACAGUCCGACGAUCUACUGUCUGCGGGUUCUUUUACCUGCUCUCCCUCAGUGAGUCCUCAACCACCCUGGGCCCAGAAACAGAGGCCUGCCGAGGGGAGGAGCCUGGCCUCUGUCCACCCGUCAUGGAAUUCUCGGGUGCCAA | 0.489 |
| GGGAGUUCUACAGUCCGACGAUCGUGGGGUGACUGGGAGACCUAGAGGGAAAGCCUGCUAUGCAGGGGGAGAGCACAGGACUGGCCCUGCUCUGCGGCCUCCUUUGUCCCAUAACCUGAAGUUAAGUCACAUCUGGAAUUCUCGGGUGCCAA | 0.559 |
| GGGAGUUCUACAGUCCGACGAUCAGGCUCUGCUGUCCUCUUAAGCCUCCUUACUCUCCUUGGGCUCAUCGACUAUCGGUUCUGUGCCUGUGCUCUGUUGUGUUGGAGGGAAGGACUGGUAGUUCUGAUUUUUAUGGAAUUCUCGGGUGCCAA | 2.81 |

Block 4
Target: Centromere-binding protein 1, full length, N-terminal tag (CBF1, Saccharomyces cerevisiae, UniProt P17106, residues 1-351)
Sequence of UniProt P17106 (whole entry, looked up): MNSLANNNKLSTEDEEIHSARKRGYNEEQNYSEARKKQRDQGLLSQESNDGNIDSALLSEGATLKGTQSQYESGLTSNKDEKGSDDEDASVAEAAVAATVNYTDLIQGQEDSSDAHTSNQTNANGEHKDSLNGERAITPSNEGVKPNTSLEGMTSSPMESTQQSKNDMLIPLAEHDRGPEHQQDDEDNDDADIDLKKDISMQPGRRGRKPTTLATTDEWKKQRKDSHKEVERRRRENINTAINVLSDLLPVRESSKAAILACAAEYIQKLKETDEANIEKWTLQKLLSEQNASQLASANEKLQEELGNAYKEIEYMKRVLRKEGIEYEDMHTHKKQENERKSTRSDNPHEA
Method: protein-binding microarray
Molecule type: double-stranded DNA, one strand shown
Matrix: in vitro
Tested at: 0.8 µM
Setting: whole 60-bp probe, no competitor
Direction: higher = stronger binding
| Oligonucleotide | fluorescence intensity [a.u.] |
| --- | --- |
| CTACAAATAGTCAGTAACGCCACGTTTTAGGATTTCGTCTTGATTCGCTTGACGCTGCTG | 596 |
| GAATGACTCAAGTGTCACGTGCATCAGTTTTTCTAGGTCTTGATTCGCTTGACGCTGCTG | 13300 |
| CTATTCACAACGTATTTCATGACATACTTATTGTTCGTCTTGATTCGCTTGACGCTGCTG | 550 |
| CTAGATTGCTTTTTTCACATGACCATATTATATTTCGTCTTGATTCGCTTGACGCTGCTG | 2380 |
| GAAAGTCTCCATCCCTTCGTCACCTTCGGCTGTTAGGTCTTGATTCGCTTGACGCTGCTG | 530 |
| GAAGCAAAAGTTCATATGATGCTATCTCCCGCTTAGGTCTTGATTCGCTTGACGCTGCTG | 473 |
| CTAGGGGCATATTGACGCGTGGAAGAATAGAAGTTCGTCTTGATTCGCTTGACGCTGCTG | 570 |
| CTAGTTAATCGCCTACATGTGAGGTTTTTTTAATTCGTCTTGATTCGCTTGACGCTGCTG | 726 |
| CCTAACTACTATATACACGAGGTATAGCTTCGTACAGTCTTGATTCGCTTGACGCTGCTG | 621 |
| CTAAGGCAGCCAAAGAGGGTCACCTATGCAGGTTTCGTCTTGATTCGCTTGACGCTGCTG | 475 |
| CCTAACTACTATAGGCGCGTGAGATAGCTTCGTACAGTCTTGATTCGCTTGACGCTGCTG | 636 |
| GAATCTTCTGTTGGTGACGAAATCTCTGCTGTATAGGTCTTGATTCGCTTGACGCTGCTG | 580 |

Repeated from above (block 4):
| Oligonucleotide | fluorescence intensity [a.u.] |
| --- | --- |
| CCTAACTACTATATACACGAGGTATAGCTTCGTACAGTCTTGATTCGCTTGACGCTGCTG | 621 |
| GAAAGTCTCCATCCCTTCGTCACCTTCGGCTGTTAGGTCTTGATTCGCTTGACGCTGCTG | 530 |
| CCTAACTACTATAGGCGCGTGAGATAGCTTCGTACAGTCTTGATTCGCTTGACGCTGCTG | 636 |
| CTAGGGGCATATTGACGCGTGGAAGAATAGAAGTTCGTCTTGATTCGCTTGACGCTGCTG | 570 |
| GAAGCAAAAGTTCATATGATGCTATCTCCCGCTTAGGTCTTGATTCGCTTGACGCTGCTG | 473 |
